# Measured values of several laboratories.
# Numbered parts are unrelated; each lists some results of a single study. Several values in a cell are separate wells, animals, samples, runs or records.
# UniProt Q02763, sequence (whole entry, looked up): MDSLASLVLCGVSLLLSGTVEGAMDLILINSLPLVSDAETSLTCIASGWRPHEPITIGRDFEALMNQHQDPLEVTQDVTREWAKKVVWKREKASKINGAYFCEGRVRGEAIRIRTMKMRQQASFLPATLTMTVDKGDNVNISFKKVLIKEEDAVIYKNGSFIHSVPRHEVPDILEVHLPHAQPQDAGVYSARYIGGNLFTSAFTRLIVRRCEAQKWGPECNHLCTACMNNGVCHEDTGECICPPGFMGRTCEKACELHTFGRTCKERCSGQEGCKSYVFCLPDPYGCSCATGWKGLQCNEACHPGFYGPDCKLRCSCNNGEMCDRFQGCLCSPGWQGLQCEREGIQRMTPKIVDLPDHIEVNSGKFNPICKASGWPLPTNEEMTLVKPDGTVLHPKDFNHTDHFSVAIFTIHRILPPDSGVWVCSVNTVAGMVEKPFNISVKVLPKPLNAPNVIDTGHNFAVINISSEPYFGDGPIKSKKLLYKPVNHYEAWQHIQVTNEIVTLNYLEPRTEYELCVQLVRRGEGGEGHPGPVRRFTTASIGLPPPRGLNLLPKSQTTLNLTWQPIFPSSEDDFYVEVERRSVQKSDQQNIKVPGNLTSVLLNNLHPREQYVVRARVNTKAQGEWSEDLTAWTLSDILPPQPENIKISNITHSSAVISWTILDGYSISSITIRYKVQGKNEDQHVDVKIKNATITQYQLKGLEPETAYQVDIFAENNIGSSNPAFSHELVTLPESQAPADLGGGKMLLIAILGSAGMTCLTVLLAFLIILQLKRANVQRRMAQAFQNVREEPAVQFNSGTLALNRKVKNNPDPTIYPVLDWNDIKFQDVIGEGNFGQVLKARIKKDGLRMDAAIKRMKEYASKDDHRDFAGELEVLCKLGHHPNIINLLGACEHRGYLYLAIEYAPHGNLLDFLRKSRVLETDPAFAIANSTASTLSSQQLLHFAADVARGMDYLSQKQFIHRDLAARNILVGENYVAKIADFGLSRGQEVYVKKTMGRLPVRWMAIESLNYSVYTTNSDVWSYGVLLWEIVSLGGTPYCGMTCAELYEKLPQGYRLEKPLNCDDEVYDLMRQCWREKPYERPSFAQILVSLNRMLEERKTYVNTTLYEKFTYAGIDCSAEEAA
# UniProt P42684, sequence (whole entry, looked up): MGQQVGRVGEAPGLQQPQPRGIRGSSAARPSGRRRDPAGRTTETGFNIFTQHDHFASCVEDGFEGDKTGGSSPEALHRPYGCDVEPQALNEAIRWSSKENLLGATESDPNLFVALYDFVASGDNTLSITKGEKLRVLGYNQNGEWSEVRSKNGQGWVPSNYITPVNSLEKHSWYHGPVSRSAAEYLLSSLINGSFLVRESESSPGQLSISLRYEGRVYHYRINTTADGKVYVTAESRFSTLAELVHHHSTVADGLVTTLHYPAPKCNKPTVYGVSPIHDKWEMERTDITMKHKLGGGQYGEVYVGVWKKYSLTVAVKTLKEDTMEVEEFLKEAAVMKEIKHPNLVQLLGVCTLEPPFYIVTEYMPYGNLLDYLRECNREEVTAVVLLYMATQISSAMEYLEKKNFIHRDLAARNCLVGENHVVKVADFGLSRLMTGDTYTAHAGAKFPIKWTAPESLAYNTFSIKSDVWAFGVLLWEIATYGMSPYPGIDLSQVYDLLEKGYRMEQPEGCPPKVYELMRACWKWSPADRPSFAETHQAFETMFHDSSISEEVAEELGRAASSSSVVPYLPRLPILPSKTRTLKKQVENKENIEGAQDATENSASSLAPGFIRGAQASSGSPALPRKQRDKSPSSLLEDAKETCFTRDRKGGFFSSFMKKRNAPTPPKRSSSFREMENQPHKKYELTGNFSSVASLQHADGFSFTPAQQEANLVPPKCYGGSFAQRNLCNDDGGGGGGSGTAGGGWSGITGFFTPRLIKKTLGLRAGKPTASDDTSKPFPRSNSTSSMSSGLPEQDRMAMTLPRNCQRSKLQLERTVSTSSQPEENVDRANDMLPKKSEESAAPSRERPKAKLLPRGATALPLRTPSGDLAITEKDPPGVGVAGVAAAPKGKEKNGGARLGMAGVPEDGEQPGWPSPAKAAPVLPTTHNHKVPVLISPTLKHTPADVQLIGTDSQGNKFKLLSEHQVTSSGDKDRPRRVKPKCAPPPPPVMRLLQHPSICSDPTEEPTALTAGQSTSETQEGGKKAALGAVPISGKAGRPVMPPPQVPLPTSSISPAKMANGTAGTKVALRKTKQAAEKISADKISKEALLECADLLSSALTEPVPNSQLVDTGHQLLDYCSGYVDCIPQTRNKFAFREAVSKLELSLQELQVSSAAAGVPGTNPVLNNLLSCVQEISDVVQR
# UniProt P49841, sequence (whole entry, looked up): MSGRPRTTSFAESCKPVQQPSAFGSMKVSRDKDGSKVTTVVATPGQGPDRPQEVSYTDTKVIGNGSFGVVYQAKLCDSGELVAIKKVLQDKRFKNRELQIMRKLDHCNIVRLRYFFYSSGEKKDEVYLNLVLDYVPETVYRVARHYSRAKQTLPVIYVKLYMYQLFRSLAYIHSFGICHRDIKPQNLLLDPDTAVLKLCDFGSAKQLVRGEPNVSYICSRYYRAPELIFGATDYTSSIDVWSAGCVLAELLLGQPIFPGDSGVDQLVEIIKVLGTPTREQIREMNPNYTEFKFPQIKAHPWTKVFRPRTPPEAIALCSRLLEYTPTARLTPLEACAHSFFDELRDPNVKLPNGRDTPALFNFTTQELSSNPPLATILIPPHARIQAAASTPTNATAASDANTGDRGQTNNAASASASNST
# UniProt Q14289, sequence (whole entry, looked up): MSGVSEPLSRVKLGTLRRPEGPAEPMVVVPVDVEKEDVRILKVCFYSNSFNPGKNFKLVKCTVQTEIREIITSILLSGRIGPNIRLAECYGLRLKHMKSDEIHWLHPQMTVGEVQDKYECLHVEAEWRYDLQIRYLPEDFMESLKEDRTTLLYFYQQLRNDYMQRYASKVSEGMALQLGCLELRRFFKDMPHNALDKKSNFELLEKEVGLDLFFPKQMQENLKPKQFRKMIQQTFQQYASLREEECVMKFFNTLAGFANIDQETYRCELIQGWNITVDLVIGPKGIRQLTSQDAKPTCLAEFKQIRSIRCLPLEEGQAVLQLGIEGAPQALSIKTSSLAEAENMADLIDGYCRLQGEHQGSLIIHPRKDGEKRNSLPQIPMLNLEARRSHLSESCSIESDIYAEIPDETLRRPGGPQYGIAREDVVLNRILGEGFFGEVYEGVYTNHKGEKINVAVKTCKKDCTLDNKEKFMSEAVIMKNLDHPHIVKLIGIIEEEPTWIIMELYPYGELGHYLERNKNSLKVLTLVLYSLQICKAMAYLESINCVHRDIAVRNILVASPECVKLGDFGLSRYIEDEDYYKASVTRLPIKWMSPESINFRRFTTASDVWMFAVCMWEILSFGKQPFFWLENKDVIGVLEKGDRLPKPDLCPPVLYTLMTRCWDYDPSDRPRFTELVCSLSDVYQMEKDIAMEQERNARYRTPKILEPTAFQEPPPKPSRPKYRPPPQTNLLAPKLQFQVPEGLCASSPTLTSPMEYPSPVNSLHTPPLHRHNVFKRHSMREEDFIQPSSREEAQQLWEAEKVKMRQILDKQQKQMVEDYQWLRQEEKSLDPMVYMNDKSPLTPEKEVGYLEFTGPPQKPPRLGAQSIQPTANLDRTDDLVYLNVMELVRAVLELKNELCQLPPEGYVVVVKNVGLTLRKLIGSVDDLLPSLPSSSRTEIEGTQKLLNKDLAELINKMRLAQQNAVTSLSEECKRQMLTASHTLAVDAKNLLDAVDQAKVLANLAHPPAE
# UniProt P27361, sequence (whole entry, looked up): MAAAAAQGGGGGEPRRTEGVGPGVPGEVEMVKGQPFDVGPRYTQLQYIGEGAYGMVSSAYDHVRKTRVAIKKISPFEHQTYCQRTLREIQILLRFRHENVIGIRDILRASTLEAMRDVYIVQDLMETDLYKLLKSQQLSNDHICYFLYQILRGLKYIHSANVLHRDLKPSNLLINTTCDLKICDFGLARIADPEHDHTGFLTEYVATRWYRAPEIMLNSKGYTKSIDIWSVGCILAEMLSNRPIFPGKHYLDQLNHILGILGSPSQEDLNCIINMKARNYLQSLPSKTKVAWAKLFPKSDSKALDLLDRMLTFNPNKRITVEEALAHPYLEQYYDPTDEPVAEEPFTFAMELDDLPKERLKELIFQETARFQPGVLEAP
# UniProt P29320, sequence (whole entry, looked up): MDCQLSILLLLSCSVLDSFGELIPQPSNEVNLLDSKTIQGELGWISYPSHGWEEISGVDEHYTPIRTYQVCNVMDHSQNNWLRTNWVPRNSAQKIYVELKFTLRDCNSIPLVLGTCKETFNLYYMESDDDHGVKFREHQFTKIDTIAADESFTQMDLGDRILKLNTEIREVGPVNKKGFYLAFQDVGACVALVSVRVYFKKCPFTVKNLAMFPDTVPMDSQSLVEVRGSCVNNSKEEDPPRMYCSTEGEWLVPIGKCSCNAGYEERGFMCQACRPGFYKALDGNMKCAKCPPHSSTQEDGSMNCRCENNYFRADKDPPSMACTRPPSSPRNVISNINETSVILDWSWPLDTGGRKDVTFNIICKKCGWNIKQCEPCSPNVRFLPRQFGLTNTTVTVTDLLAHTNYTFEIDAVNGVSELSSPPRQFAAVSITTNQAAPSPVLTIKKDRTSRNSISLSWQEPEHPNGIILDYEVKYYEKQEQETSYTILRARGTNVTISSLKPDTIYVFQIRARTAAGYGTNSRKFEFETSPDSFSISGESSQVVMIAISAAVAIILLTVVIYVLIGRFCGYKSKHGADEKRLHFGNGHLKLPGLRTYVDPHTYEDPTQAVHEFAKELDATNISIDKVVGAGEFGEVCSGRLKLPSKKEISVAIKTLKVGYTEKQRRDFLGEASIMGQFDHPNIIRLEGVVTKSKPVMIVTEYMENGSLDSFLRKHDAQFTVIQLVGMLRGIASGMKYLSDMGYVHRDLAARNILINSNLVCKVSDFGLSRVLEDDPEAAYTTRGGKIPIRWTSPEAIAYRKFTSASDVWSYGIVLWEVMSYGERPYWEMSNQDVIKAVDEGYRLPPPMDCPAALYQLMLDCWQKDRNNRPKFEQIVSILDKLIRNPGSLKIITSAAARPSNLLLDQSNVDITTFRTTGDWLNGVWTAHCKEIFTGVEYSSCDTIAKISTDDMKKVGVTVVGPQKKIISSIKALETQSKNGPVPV

# Series 1 — observed: cell-free assay; technique: competition with immobilised ligand; concentration: 1 µM
# Compound: COc1cccc(CNC(=O)c2nc3scc(COCc4ccc(C(=O)O)cc4)c3c(=O)[nH]2)c1
target,remaining binding [%]
"Protein-tyrosine kinase 2-beta (PTK2B, Homo sapiens, UniProt Q14289)",85.3
"Serine/threonine-protein kinase PAK 5 (PAK5, Homo sapiens, UniProt Q9P286)",87.4
"Serine/threonine-protein kinase 35 (STK35, Homo sapiens, UniProt Q8TDR2)",93.6
"Angiopoietin-1 receptor (TEK, Homo sapiens, UniProt Q02763)",100

# Series 2 — species: human; sample: microsomes or S9; concentration: 2 µM; time: 0.5 h
SMILES,remaining compound [%]
Cc1nn(-c2ccc(F)c(Cl)c2)c(=O)cc1-c1cccc(N2CCCC2=O)c1,62.8
COc1ccc(-c2n[nH]c(-c3ccccn3)n2)cc1,44.3
Cc1cccc(/N=c2/ncc3c([nH]2)CC(c2ccc(F)cc2)CC3=O)c1 (centres unmarked),9.05

# Series 3 — technique: exponential regression of PRP log k'; pH: 7.0
Structure (SMILES),"logD (1,9-decadiene/water)"
COCC(=O)NCCCCCC(=O)N[C@H](C(=O)N1C[C@H](O)C[C@H]1C(=O)NCc1ccc(-c2scnc2C)cc1)C(C)(C)C,-4.4
CCCC(=O)OCCCCCC(=O)N[C@H](C(=O)N1C[C@H](O)C[C@H]1C(=O)NCc1ccc(-c2scnc2C)cc1)C(C)(C)C,-1.35
CCCCOc1ccc(-c2ccc(C(=O)NCCCCCC(=O)N[C@H](C(=O)N3C[C@H](O)C[C@H]3C(=O)NCc3ccc(-c4scnc4C)cc3)C(C)(C)C)cc2)cc1,1.55

# Series 4 — cell line: mouse MPNST tumor cells; technique: high-content immunofluorescence imaging; measured: nuclear SOX9; concentration: 10 µM; time: 12 h; setting: mean of 2 replicates; reference: DMSO control; reading: higher = more nuclear SOX9
Compound,nuclear SOX9 intensity
Nc1nccc(-c2c(-c3ccc(F)cc3)ncn2C2CCN(Cc3ccon3)CC2)n1,91.4 % of DMSO
O=c1cc(N2CCN(c3cccc(C(F)(F)F)c3)CC2)[nH]c(=O)n1C1CCCCC1,134 % of DMSO
CCOC(=O)C1=C[C@]2(CC)CCCN3CCc4c(n1c1ccccc41)[C@@H]32,97.4 % of DMSO
CCc1ccc(CCOc2ccc(CC3SC(=O)NC3=O)cc2)nc1 (centres unmarked),93.2 % of DMSO and 103 % of DMSO

# Series 5 — technique: Phase 2a trial; species: idiopathic pulmonary fibrosis patients
# Compound: CC(C)n1cnc(-c2ccc(F)cc2)c1-c1ncc(C(=O)Nc2ccc(N3CCN(C)CC3)cc2)[nH]1
measured,dose,setting,patients with adverse events
blood creatine phosphokinase increased,60 mg once daily,grade 2 maximum intensity,0%
muscular weakness,30 mg once daily,grade 4 maximum intensity,0%
eye disorders (SOC),60 mg once daily,grade 4 maximum intensity,0%
blood alkaline phosphatase increased,dose not given,"grade 5 maximum intensity, all arms",0%

# Series 6 — cell line: HaCaT; concentration: 100 µM; time: 36 h
SMILES,viability [%]
CN1CCC(=C2c3ccccc3CCc3cccnc32)CC1,95.6
N#C[C@@H]1C[C@@H]2C[C@@H]2N1C(=O)[C@@H](N)C12CC3CC(CC(O)(C3)C1)C2,90.6
O=c1[nH]cc(F)c(=O)[nH]1,46

# Series 7 — observed: enzyme activity; action: inhibitor; concentration: 0.5 µM; reference: control
# SMILES: COc1cc2c(Nc3ccc(Br)cc3F)ncnc2cc1OCC1CCN(C)CC1
target,remaining activity [%]
"Serine/threonine-protein kinase A-Raf (ARAF, Homo sapiens, UniProt P10398)",84
"Serine/threonine-protein kinase TBK1 (TBK1, Homo sapiens, UniProt Q9UHD2)",99.9
"Activin receptor type-1B (ACVR1B, Homo sapiens, UniProt P36896)",107
"MAP kinase-activated protein kinase 2 (MAPKAPK2, Homo sapiens, UniProt P49137)",99.5
"Serine/threonine-protein kinase Nek6 (NEK6, Homo sapiens, UniProt Q9HC98)",96.9
"Ephrin type-A receptor 3 (EPHA3, Homo sapiens, UniProt P29320)",57.7
"Serine/threonine-protein kinase TAO2 (TAOK2, Homo sapiens, UniProt Q9UL54)",104
"Tyrosine-protein kinase Mer (MERTK, Homo sapiens, UniProt Q12866)",47.9
"Tyrosine-protein kinase ABL2 (ABL2, Homo sapiens, UniProt P42684)",14
"Mitogen-activated protein kinase 3 (MAPK3, Homo sapiens, UniProt P27361)",102
"Glycogen synthase kinase-3 beta (GSK3B, Homo sapiens, UniProt P49841)",101
"Mitogen-activated protein kinase kinase kinase 14 (MAP3K14, Homo sapiens, UniProt Q99558)",155
"Tyrosine-protein kinase JAK3 (JAK3, Homo sapiens, UniProt P52333)",96
"Ribosomal protein S6 kinase alpha-2 (RPS6KA2, Homo sapiens, UniProt Q15349)",85.9
"Rhodopsin kinase GRK7 (GRK7, Homo sapiens, UniProt Q8WTQ7)",96.4
"Casein kinase I isoform gamma-2 (CSNK1G2, Homo sapiens, UniProt P78368)",98.5
"Mitogen-activated protein kinase kinase kinase 5 (MAP3K5, Homo sapiens, UniProt Q99683)",102
"Angiopoietin-1 receptor (TEK, Homo sapiens, UniProt Q02763)",50.8
"Serine/threonine-protein kinase Nek1 (NEK1, Homo sapiens, UniProt Q96PY6)",123

# Other studies, line by line
Compound,target,observed,action,concentration,quantity,result
CC(C)S(=O)(=O)c1ccc2nccc(Nc3ccc4sc(C5CCCC5)nc4c3)c2c1.Cl,"Rho-associated protein kinase 2 (ROCK2, Homo sapiens, UniProt O75116)",kinase activity,inhibitor,1 µM,remaining activity,99%

# For quick reference, copied from above (series 3):
Structure (SMILES),"logD (1,9-decadiene/water)"
COCC(=O)NCCCCCC(=O)N[C@H](C(=O)N1C[C@H](O)C[C@H]1C(=O)NCc1ccc(-c2scnc2C)cc1)C(C)(C)C,-4.4
CCCC(=O)OCCCCCC(=O)N[C@H](C(=O)N1C[C@H](O)C[C@H]1C(=O)NCc1ccc(-c2scnc2C)cc1)C(C)(C)C,-1.35
CCCCOc1ccc(-c2ccc(C(=O)NCCCCCC(=O)N[C@H](C(=O)N3C[C@H](O)C[C@H]3C(=O)NCc3ccc(-c4scnc4C)cc3)C(C)(C)C)cc2)cc1,1.55
